Experimental data gathered from unrelated publications.
Every numbered part comes from another study and shows a few of its results, in no order.

Block 1
Target: Centromere-binding protein 1, full length, His-tagged (CBF1, Saccharomyces cerevisiae, UniProt P17106, residues 1-351)
UniProt P17106, sequence (whole entry, looked up): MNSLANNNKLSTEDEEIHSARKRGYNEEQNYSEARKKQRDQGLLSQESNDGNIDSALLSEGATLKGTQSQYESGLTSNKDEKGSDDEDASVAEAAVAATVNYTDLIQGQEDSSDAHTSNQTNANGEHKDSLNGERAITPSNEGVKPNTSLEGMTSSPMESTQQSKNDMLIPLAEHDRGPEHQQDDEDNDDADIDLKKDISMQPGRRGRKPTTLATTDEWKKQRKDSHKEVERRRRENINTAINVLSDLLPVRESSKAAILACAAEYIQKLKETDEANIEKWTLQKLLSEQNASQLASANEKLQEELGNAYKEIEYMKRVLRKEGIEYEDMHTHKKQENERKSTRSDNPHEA
Technique: competition protein-binding microarray
Molecule type: double-stranded DNA, one strand shown
Matrix: in vitro
Concentration: 2 µM
Notes: whole 60-bp probe, lowest competitor level
Added: Pho4 competitor, 0.05 µM
Reading: higher = stronger binding
Oligonucleotide	fluorescence intensity [a.u.]
CTAACGAAGGTTTGGTAAGTGGGTGACAAGCCAAGTGTCTTGATTCGCTTGACGCTGCTG	71
CTAACGAAGGTTTGGTATGTGGGTGACAAGCCAAGTGTCTTGATTCGCTTGACGCTGCTG	81.2
CGACACAAAAAAGAACCCGTGCAAATATTATATCCCGTCTTGATTCGCTTGACGCTGCTG	304
CTCGTAATCTGGTCCCACGTCTTGCACTATATGCAGGTCTTGATTCGCTTGACGCTGCTG	60.1

Block 2
Target: Sal-like protein 4, full length isoform A (SALL4, Homo sapiens, UniProt Q9UJQ4, residues 1-1053)
UniProt Q9UJQ4, sequence (whole entry, looked up): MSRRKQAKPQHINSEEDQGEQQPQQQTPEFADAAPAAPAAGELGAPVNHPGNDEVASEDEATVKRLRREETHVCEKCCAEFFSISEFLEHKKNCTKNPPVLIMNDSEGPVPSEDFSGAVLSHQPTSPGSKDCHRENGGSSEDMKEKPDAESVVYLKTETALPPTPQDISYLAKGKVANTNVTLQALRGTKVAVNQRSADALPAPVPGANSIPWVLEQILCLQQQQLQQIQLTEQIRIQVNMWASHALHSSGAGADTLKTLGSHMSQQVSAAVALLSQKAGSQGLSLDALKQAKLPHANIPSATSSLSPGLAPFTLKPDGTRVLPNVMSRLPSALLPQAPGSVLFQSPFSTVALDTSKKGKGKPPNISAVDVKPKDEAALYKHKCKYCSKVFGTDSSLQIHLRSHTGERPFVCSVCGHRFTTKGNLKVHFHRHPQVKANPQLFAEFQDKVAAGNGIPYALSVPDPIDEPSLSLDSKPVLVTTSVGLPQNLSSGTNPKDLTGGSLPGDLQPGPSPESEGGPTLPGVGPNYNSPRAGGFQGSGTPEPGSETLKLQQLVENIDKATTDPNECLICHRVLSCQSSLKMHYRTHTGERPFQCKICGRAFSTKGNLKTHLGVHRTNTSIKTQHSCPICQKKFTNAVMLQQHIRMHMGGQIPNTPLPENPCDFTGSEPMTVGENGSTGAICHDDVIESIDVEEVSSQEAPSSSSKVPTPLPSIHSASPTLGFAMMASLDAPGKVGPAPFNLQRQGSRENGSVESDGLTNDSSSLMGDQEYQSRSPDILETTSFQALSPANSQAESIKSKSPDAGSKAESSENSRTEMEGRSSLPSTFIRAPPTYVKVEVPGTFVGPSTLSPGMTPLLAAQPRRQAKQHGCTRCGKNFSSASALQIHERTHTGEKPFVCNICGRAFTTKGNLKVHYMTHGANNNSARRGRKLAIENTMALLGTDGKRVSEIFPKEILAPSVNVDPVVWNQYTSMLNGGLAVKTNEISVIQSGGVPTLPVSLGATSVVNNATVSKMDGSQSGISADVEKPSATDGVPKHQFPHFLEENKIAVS
Technique: universal PBM
Molecule type: double-stranded DNA, one strand shown
Matrix: in vitro
Concentration: 600 nM
Notes: 8-mer, flanks averaged, mean of replicates
Reading: higher = stronger binding
Oligonucleotide	E-score
AAACCTTG	0.0254
GGTTTGAA	0.0903
CCAGCTTA	0.0413

Block 3
Target: Interferon regulatory factor 3, full length, phosphomimetic (IRF3, Homo sapiens, UniProt Q14653, residues 1-427, S386D/S396D/S398D/S402D/T404D/S405D)
Technique: protein-binding microarray
Molecule type: double-stranded DNA, one strand shown
Matrix: in vitro
Concentration: 2540 nM top
Notes: 60-bp whole probe
Added: salmon DNA 0.4 mg/ml
Relative to: random background probes
Reading: higher = stronger binding
Residues (chain): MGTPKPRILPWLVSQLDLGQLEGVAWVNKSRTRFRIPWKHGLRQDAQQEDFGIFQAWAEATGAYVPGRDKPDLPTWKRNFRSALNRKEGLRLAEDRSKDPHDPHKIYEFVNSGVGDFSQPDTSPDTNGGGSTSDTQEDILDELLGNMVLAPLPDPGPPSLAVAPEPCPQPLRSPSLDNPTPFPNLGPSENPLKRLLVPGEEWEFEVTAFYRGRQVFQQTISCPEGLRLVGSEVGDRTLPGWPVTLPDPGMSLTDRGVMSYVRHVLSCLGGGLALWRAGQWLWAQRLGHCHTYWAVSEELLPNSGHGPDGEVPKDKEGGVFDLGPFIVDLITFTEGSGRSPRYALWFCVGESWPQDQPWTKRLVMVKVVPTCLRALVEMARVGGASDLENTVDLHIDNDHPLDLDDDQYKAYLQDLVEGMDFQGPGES
Oligonucleotide	fitted relative affinity [z-score]
GCCTAGCACATCATTTTCGTTTTTATTATGTGCTAGGTCTTGATTCGCTTGACGCTGCTG	6.15
GCCTAGCACTCAATCCTCTCACCTCAGACTGTGCTAGTCTTGATTCGCTTGACGCTGCTG	0.0898
GCCTAGCACTTAGGTATCCTTATCCTTTAGTGCTAGGTCTTGATTCGCTTGACGCTGCTG	5.12
GCCTAGCACTTAGAACGGAGTCTCGATTAGTGCTAGGTCTTGATTCGCTTGACGCTGCTG	-0.116

Mixed results
Molecule	target	assay	system	conditions	scale	quantity	value
PhoQ, residues 284 288 289 292 302 303 SIHMAM	PhoP, residues 12 14 15 18 19 LYHSL (Escherichia coli, UniProt P23836)	Sort-seq, item: YFP reporter	E. coli	PhoQ-PhoP variant library, added: 10 µM Mg2+	relative to: high Mg2+ state, higher = stronger signaling	fold induction	2.96

Excerpt of the above (block 2):
Oligonucleotide	E-score
GGTTTGAA	0.0903
CCAGCTTA	0.0413
